# Assay results of several laboratories.
# Numbers after ± are the reported error.
# Sample: plasma
Compound,technique,host,route,dose,time,notes,half-life
CCCC[C@H](NC(C)=O)C(=O)N[C@H]1CC(=O)NCCCC[C@@H](C(=O)N[C@@H](C(=O)N2CCC[C@@H]2C(N)=O)C(C)C)NC(=O)[C@H](Cc2c[nH]c3ccccc23)NC(=O)[C@H](CCCN=C(N)N)NC(=O)[C@@H](Cc2ccc3ccccc3c2)NC(=O)[C@@H]2CCCN2C1=O,,"Beagle dog, both sexes","subcutaneous, once daily",0.75 mg/kg,day 1,,2 ± 0.1 h
CC(C)[C@H](NC(=O)CNC(=O)[C@H](CCC(N)=O)NC(=O)[C@H](C)N)C(=O)O,LC-MS/MS,"human, male",intravenous,20 mg/kg three times daily,"day 3, first dose","10 min infusion, geometric mean",0.13 h
CC(=O)N[C@H](CSSC[C@H](N)C(=O)O)C(=O)N[C@H](C)C(=O)N[C@H](CCCNC(=N)N)C(=O)N[C@H](CCCNC(=N)N)C(=O)N[C@H](CCCNC(=N)N)C(=O)N[C@H](C)C(=O)N[C@H](CCCNC(=N)N)C(N)=O,,male human,intravenous,0.5 mg,,"single dose, healthy volunteers",19.4 h
CC(C)(O)c1ncc([S@](N)(=O)=NC(=O)Nc2c3c(cc4c2CCC4)CCC3)s1,,human,oral,100 mg,,"single dose, fed, healthy volunteers",9.76 h
CN1CCC[C@]1(C)/C=C/S(=O)(=O)NC(=O)Nc1c2c(cc3c1CCC3)CCC2,,human,oral,100 mg,,"single dose, healthy volunteers",6.3 h
O=C(CCc1ccc(CNC(C(=O)OC2CCCC2)C2CCCCC2)cn1)NO (stereo not shown),,human,oral,20 mg,,"multiple doses, once daily, patients",0.368 h
Cc1ccc(OCC(=O)N(Cc2cccs2)c2ccn[nH]2)cc1,,"beagle dog, male",oral gavage,30 mg/kg,,,4.47 h
[2H]C([2H])([2H])NC(=O)c1ccc(N2C(=S)N(c3ccc(C#N)c(C(F)(F)F)c3)C(=O)C2(C)C)cc1F,,male human,oral,160 mg,,"single dose, fasted",159 h
CC12CC(c3ccc(S(C)(=O)=O)cc3)C3=C4CCC(=O)C=C4CCC3C1CCC2(O)C(F)(F)C(F)(F)F (stereo not shown),,human,oral,5 mg,,"single dose, fasted",~32 h
CCc1cc(Nc2nc(-c3ccc(-n4cnc(C)c4)c(F)c3)cs2)c(C)cc1C,,human,oral,400 mg,,"multiple doses, once daily",10.6 h

# Repeated from above:
Compound,technique,host,route,dose,time,notes,half-life
CN1CCC[C@]1(C)/C=C/S(=O)(=O)NC(=O)Nc1c2c(cc3c1CCC3)CCC2,,human,oral,100 mg,,"single dose, healthy volunteers",6.3 h
